Measurements pooled from the literature.
Numbered parts are unrelated; each lists some results of a single study. Positions count from the first letter of the parent shown.

Set 1
Target: Interferon regulatory factor 7, full length, phosphomimetic (IRF7, Homo sapiens, UniProt Q92985, residues 1-503, S101K/S471D/S472D/S475D/S476D/S477D/S483D/S484D/S487D)
UniProt Q92985, sequence (whole entry, unmodified, looked up): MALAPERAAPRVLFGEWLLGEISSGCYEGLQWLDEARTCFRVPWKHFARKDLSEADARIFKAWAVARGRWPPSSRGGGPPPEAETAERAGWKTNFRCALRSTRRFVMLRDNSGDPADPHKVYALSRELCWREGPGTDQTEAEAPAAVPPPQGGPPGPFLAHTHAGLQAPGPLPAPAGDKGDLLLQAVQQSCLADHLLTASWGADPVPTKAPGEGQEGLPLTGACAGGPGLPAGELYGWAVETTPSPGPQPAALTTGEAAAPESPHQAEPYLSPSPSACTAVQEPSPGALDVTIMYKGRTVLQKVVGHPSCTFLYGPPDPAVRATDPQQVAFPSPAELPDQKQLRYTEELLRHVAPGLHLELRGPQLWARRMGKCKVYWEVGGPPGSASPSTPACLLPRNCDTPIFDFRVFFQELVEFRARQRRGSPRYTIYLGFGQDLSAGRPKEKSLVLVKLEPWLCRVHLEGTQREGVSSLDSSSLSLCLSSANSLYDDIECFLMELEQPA
Method: protein-binding microarray
Form: double-stranded DNA, one strand shown
Medium: in vitro
Concentration: 250 nM
Notes: 60-bp whole probe
With: salmon DNA 0.4 mg/ml
Relative to: random background probes
Direction: higher = stronger binding
Constant ends, left off below: GCCTAGCAC … GTCTTGATTCGCTTGACGCTGCTG
| Strand | log fluorescence [z-score] |
| --- | --- |
| TCATGCTTGTGTTTATTACTGTGCTAG | -0.152 |
| CACGATTTCAGTCTCGAGACGTGCTAG | 1.01 |
| GACGGTATCCTTTTCCGGACGTGCTAG | 0.997 |
| TCAGCTCTCTGGACTGTGACTGTGCTA | -0.396 |
| ACAGCAAGAGCTCAACGGGGGTGCTAG | -0.189 |
| CGGGGGTGGGGAGAGCCCCTGTGCTAG | 2.86 |
| TTAGGTATCGAATTTCGGTTAGTGCTA | 1.91 |
| TTAGGACTGGACTTTCGGTTAGTGCTA | 0.434 |

Set 2
Target: Ras GTPase-activating protein-binding protein 1, RRM domain (G3BP1, Homo sapiens, UniProt Q13283)
UniProt Q13283, sequence (whole entry, looked up): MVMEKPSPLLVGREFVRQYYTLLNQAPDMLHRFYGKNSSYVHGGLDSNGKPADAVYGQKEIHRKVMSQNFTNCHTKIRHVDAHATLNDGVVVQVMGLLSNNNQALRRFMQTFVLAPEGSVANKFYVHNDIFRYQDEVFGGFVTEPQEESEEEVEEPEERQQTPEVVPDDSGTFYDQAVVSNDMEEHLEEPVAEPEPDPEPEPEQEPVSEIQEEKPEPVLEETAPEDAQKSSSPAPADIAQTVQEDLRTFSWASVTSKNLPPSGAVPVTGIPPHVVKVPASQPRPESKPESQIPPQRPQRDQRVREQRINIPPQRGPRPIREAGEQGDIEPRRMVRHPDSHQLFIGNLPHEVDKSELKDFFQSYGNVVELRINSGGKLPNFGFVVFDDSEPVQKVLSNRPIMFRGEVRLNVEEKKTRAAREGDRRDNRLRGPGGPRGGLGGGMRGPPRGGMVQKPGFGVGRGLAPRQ
Method: RNA Bind-n-Seq
Form: RNA
Medium: in vitro
Concentration: 1 µM
Notes: whole 134-nt RNA, ends assumed
With: 150 mM KCl
Relative to: input library
Direction: higher = stronger binding
Constant ends, left off below: GGGAGUUCUACAGUCCGACGAUC … UGGAAUUCUCGGGUGUCAAGG
| Strand | log2 enrichment |
| --- | --- |
| UAACGUUAGAGGAGGAUCUGAUGGAUAUGGCAGUGGACGUGGAUUUGGGGAUGGCUAUAAUGGGUAUGGAGGAGGACCUGGAGGUGGCAA | -0.603 |
| UUAUGGAGUUUGGCCCUGAGGACAUGCUGCUGGGCAUGGAUGAGGCUGAAGAUGAUGAGGACCUGGAGGCUGAGCUGCUGGCUCUCACAG | -0.366 |
| GCAGGAAGUAAAAACAAAUGGAAAUGCUUCGGAUAGUGGCAGGGGUGGGGAUUGCUAAGGAAAGGGUGGGAUGGGAGUGGGUAAAGAGUU | 1.37 |
| UAACUUUAGAGGAGGAUCUGAUGGAUAUGGCAGUGGACGUUGAUUUGGGGAUGGCUAUAAUGGGUAUGGAGGAGGACCUGGAGGUGGCAA | -0.241 |
| CACAGACAACACGCACCCACACAGACACAGAGGGAAGGGGUUGGGAUGGGGACAGGGUGCACAGCAGGGCGGGGUAUGACCCCAGCCCCU | -0.266 |
| GCAGGAAGUAAAAACAAAUGGAAAUGCUUCGGAUAGUGGCAGGGGUGGGGGUAAAUAAGGAAAGGGUGGGAUGGGAGUGGGUAAAGAGUU | 0.847 |
| CAAGUCCUGUGCUACACAUCGUAUGUACCGAAUCGGGUGGGAAAAAGGGAAAGGGAAAGUAUUAUGUUACGCCGUUCGGAUCUGCACUUC | 0.985 |
| UGGCCCUGGUGGCAUGCGGGGAGGAAGAGGUGGCCUCAUGGAUCGCGGUGGUCCCGGUGGAAUGUUCAGAGGUGGCCGUGGUGGAGACAG | 1.11 |

Further values, each from its own experiment
P1: BRCA2 docking peptide (human); CKKRRALDFLSRL; partner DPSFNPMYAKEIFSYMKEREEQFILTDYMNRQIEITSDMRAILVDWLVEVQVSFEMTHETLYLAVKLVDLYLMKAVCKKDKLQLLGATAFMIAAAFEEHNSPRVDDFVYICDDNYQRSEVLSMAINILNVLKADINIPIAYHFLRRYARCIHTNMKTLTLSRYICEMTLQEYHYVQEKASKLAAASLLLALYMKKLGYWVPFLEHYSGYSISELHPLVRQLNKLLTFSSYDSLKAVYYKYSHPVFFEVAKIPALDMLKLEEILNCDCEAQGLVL
| Molecule | tested on | assay | test system | setting | how to read | endpoint | result |
| --- | --- | --- | --- | --- | --- | --- | --- |
| NLEPNAEFDKRTEFIT | human cyclin A2 | competitive growth deep sequencing | peptide, Saccharomyces cerevisiae, cyclin A2-Cln2 fusion strain | peptide tiling library | direction not given | enrichment score | 0.491 |
| PhoQ, residues 284 288 289 292 302 303 SSTMSV | PhoP, residues 12 14 15 18 19 SYFRT (Escherichia coli, UniProt P23836) | Sort-seq, measured: YFP reporter | E. coli | PhoQ-PhoP variant library, with: 10 µM Mg2+ | relative to: high Mg2+ state, higher = stronger signaling | fold induction | 1.05 |
| PPVIIKYIIINRF | Cln2 (Saccharomyces cerevisiae) | peptide binding, competitive growth sequencing | peptide, Saccharomyces cerevisiae, unfused Cln2 strain | mutational scanning library 2 | direction not given | enrichment score | -1.2 |
| HRRRLLFACSPPPASQ | – | peptide binding | peptide, yeast competitive growth | with: B1-Cln2 chimera | direction not given | enrichment score | 0.00174 |
| P1 D8A | CCNB3, cyclin fold, Cln2 fusion (human) | yeast growth competition, sequencing | yeast | weak parent motif | relative to: not given, higher = stronger binding | normalised enrichment score | 0.00852 |

Excerpt of the above (set 2):
| Strand | log2 enrichment |
| --- | --- |
| CAAGUCCUGUGCUACACAUCGUAUGUACCGAAUCGGGUGGGAAAAAGGGAAAGGGAAAGUAUUAUGUUACGCCGUUCGGAUCUGCACUUC | 0.985 |
| CACAGACAACACGCACCCACACAGACACAGAGGGAAGGGGUUGGGAUGGGGACAGGGUGCACAGCAGGGCGGGGUAUGACCCCAGCCCCU | -0.266 |
